Experimental data pooled from the literature.
Compare with care: the assays were run in different laboratories.
PKN2: Serine/threonine-protein kinase N2 (PKN2, Homo sapiens, UniProt Q16513)
Genome polyprotein protease: Genome polyprotein, protease (Hepatitis C virus genotype 1b, UniProt O92972)
Sequence of UniProt O92972 (whole entry, looked up): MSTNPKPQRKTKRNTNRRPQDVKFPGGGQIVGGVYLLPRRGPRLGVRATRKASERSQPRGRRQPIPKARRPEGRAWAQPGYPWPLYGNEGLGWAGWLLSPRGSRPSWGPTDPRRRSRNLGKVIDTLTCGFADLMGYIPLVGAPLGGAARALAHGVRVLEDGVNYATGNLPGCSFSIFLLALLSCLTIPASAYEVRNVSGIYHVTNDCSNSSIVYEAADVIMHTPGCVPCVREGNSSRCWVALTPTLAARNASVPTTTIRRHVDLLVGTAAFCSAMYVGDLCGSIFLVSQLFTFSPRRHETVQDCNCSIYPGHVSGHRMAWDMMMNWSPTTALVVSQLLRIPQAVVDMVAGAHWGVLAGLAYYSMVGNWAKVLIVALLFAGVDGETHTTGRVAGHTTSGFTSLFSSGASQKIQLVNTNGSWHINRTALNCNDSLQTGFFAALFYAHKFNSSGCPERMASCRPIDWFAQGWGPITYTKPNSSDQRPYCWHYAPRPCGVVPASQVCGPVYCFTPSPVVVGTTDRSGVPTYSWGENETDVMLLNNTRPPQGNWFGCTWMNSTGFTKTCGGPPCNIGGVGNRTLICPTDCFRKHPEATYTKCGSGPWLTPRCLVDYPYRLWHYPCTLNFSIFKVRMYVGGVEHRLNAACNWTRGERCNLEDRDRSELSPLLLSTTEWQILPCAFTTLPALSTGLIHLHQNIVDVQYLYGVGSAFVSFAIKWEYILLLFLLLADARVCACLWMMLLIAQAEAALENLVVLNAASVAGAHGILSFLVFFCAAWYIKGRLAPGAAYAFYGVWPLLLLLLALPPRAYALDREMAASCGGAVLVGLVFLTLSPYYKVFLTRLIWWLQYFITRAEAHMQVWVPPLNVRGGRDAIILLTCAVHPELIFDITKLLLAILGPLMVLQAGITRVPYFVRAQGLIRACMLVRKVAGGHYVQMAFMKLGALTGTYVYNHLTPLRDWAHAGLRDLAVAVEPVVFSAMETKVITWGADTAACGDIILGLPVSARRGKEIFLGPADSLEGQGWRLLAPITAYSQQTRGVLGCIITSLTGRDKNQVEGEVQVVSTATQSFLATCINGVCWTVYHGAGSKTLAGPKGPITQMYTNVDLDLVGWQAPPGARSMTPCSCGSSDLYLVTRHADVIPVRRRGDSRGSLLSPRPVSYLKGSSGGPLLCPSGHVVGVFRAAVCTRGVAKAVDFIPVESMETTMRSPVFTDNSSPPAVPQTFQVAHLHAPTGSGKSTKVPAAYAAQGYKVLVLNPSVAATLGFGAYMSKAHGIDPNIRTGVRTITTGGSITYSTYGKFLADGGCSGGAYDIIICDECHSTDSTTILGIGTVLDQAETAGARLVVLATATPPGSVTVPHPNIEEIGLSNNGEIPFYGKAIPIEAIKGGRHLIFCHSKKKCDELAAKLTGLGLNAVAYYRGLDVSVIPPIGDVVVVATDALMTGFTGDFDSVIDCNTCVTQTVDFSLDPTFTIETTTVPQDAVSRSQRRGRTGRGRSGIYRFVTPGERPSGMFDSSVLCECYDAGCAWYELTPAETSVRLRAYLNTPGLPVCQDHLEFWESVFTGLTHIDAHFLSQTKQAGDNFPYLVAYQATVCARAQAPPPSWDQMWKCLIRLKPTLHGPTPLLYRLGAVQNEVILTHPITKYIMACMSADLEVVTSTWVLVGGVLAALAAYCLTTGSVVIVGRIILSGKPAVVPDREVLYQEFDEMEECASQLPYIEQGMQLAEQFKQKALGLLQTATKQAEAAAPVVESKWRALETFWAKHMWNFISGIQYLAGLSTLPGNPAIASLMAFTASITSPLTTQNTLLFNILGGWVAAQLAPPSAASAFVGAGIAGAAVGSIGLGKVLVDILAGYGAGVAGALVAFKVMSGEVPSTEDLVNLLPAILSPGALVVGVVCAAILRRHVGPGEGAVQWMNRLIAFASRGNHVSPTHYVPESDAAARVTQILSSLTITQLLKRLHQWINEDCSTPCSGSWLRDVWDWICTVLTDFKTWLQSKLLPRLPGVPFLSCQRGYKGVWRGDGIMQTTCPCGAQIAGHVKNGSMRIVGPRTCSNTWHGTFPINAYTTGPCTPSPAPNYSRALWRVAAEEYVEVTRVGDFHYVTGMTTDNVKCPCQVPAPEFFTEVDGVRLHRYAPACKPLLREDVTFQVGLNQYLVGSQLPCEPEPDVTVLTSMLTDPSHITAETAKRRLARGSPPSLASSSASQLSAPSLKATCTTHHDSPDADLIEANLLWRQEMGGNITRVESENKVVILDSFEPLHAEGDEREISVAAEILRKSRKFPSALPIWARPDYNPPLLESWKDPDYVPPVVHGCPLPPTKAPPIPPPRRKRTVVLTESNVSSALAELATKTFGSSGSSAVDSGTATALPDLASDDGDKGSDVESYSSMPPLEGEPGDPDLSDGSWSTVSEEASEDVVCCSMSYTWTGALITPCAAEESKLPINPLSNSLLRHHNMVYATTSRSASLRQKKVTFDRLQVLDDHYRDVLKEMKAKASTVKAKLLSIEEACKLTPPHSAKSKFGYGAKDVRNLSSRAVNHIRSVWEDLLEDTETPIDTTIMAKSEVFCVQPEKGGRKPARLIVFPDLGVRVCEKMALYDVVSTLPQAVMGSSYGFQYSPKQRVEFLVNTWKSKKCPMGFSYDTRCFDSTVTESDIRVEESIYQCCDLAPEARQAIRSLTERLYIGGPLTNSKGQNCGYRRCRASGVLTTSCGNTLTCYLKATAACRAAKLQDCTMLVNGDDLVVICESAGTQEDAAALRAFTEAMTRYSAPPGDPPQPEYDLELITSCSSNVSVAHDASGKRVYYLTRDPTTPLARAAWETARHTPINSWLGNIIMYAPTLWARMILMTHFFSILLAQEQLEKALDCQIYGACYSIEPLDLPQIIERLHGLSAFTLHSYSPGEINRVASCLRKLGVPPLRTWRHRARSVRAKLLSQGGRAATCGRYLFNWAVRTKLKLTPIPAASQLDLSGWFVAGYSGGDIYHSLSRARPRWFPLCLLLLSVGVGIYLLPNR
CDK2 with cyclin A: Cyclin-dependent kinase 2, with cyclin A (CDK2, Homo sapiens, UniProt P24941)
PIK3CB: Phosphatidylinositol 4,5-bisphosphate 3-kinase catalytic subunit beta isoform (PIK3CB, Homo sapiens, UniProt P42338)
Sequence of UniProt P42338 (whole entry, looked up): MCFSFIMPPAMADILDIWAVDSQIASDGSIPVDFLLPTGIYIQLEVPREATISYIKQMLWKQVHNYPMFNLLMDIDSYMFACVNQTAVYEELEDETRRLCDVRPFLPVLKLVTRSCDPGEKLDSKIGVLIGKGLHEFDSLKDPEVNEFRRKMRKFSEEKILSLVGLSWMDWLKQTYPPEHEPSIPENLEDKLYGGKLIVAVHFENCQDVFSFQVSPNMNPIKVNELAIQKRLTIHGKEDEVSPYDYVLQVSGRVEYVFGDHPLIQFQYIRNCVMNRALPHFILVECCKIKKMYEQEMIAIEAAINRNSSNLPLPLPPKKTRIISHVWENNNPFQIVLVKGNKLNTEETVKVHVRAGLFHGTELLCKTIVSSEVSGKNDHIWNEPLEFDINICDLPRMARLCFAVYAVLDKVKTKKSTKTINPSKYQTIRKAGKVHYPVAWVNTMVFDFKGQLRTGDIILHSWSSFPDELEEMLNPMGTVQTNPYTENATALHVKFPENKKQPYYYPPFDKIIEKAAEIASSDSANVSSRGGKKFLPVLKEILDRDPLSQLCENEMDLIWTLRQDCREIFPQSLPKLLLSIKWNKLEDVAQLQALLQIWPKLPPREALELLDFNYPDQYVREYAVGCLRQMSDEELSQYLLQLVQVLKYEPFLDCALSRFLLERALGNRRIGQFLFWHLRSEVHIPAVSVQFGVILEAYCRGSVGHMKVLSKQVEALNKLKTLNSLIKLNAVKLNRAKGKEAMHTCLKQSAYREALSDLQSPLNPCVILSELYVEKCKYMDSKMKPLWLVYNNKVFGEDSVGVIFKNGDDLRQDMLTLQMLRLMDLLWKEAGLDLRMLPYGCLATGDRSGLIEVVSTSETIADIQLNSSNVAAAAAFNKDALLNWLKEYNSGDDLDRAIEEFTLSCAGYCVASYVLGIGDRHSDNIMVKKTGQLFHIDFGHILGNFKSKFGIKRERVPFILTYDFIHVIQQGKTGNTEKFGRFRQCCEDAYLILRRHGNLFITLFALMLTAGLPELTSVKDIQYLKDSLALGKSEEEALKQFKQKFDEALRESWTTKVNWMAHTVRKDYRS
SLC10A1: Hepatic sodium/bile acid cotransporter (SLC10A1, Homo sapiens, UniProt Q14973)
HDAC3: Histone deacetylase 3 (HDAC3, Homo sapiens, UniProt O15379)
Sequence of UniProt O15379 (whole entry, looked up): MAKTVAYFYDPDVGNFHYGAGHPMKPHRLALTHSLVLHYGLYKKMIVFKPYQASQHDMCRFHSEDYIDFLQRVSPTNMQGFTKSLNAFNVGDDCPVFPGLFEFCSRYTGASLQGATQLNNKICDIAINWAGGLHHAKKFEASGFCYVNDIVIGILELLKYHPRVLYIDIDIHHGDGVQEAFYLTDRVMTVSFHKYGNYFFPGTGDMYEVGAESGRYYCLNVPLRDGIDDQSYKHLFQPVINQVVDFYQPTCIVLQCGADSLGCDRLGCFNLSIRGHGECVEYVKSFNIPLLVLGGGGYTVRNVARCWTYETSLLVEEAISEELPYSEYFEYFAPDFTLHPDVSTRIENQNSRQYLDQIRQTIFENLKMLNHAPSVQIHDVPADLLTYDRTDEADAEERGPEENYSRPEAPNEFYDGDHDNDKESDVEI
Sequence of UniProt P35346 (whole entry, unmodified, looked up): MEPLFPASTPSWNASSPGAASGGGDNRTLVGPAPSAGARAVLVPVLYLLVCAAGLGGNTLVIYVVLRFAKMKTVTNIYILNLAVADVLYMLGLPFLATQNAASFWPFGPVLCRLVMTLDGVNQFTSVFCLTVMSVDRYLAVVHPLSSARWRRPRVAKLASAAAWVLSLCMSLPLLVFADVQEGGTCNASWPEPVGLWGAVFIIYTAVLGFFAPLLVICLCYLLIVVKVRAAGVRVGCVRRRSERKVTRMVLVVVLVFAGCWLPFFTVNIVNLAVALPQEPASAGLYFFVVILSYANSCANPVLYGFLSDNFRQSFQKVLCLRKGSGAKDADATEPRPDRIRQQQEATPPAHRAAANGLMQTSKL
Sequence of UniProt P49720 (whole entry, looked up): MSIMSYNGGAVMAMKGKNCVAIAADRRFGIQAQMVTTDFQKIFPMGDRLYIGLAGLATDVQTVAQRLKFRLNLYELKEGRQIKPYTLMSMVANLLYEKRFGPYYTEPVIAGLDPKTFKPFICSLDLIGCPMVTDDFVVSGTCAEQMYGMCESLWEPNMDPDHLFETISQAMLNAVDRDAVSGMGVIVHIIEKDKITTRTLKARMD

Compound	target	test	test system	conditions	IC50 [nM]
Cc1nn(-c2cccc(N)c2)c(=O)c2cnc(Nc3ccc(N4CCNCC4)cc3)nc12	MAPK11 (Homo sapiens, UniProt Q15759)	enzyme activity, inhibitor			> 10000
CC(C)(C)NC(=O)CC(NC(=O)CCc1ccccc1)C(=O)NCCNC(=O)c1cccc(-c2ccccc2)c1 (stereo not shown)	20S proteasome (Plasmodium falciparum, UniProt A0A5K1K7U1+Q8IJT1)	inhibitor		together with: LLVY-AMC 30 µM, WLW-VS 0.5 µM	3.6
O=C1Nc2c(Br)cccc2/C1=C1/Nc2ccccc2C1=NO	PKN2				> 10000
O=c1c(-c2ccc(Cl)c(CN3CCOCC3)c2)coc2cc(O)ccc12	HSD3B1 (Homo sapiens, UniProt P14060)	DHEA metabolism, inhibitor	VCaP	together with: [3H]-DHEA	5.86
c1ccc2c(CN3CCC(N4CCCCCC4)CC3)c[nH]c2c1	CatSper channel complex (Homo sapiens, UniProt Q7RTX7+Q86XQ3+Q8NEC5+Q96P56)	calcium influx, inhibitor, FLIPR	human sperm	together with: high pH, high potassium	12000
Cc1ccc2nc(NN)n(Cc3ccccc3)c(=O)c2c1	Genome polyprotein protease	enzyme activity, inhibitor, FRET			29500
O=C(Nc1cc(-c2cccnc2)[nH]n1)C1CCC1	CDK2 with cyclin A	radiometric		together with: 1 µM ATP	6600
O=C1Nc2ccccc2C12NC(c1ccc(F)cc1)C1(C(=O)Nc3ccccc31)N2Cc1ccc(F)cc1 (stereo not shown)	PIK3CB	enzyme activity, inhibitor, ADP detection			173
CC(C)C[C@H](NC(=O)[C@H](Cc1ccc(CN)cc1)NC(=O)[C@H](Cc1ccccc1)N=[N+]=[N-])C(=O)N[C@@H](CC1CCC2CCCCC2C1)C(=O)[C@@]1(C)CO1 (stereo partly shown)	PSMB6 (Homo sapiens, UniProt P28072)	competitive ABPP	Raji cell lysate		> 10000
CCN(CC)CC(=O)Nc1cccc(-n2cc(-c3ccc4ccc(-c5cn(-c6cccc(NC(=O)CN(CC)CC)c6)nn5)cc4c3)nn2)c1	PKN2	enzyme activity, inhibitor			> 10000
C=CC(=O)N1C[C@H](C)N(c2nc(OC[C@@]34CCCN3C[C@H](F)C4)nc3c(F)c(-c4ccc(F)c5sc(N)c(C#N)c45)c(C(F)(F)F)cc23)C[C@H]1C	GTPase KRas, GppNHp-bound; with RAF1-RBD (KRAS, Homo sapiens, UniProt P01116)	binding, HTRF			3300
CCOc1cc(CN2CC3(CC(N4CCC(C(=O)O)CC4)=NO3)C2)cc(OCC)c1-c1ccc(F)cc1	SSTR5 (Homo sapiens, UniProt P35346, W261A)	cAMP level, antagonist, GloSensor	AD293	W261A mutant, bandwidth 6.48, together with: CST17 EC80 and forskolin	2690
Cc1nc(N(C)c2ccc3c(c2)/C(=C/c2ccccc2)C(=O)N3C)c2ccccc2n1	PIK3CB	enzyme activity, inhibitor, ADP detection			380
Nc1ncc2c(n1)-c1c([nH]c3ccc(C4=CCOCC4)cc13)CCC2	MYLK4 (Homo sapiens, UniProt Q86YV6)	enzyme activity, inhibitor, radiometric			12
O=C1Nc2ccccc2C12NC(c1ccc(Cl)c(Cl)c1)C1(C(=O)Nc3ccccc31)N2Cc1ccc(Cl)c(Cl)c1 (stereo not shown)	PIK3CB	enzyme activity, inhibitor, ADP detection			304
NCCCC[C@@H]1NC(=O)CNC(=O)[C@H](N)CSSC[C@H](C(N)=O)NC(=O)[C@@H](CCC(=O)O)NC(=O)[C@@H](CO)NC(=O)[C@H](CC(=O)O)NC(=O)CNC1=O	Integrin alpha-V/beta-3 (Homo sapiens, UniProt P05106+P06756)	ligand displacement, flow cytometry			> 20000
C[C@@H](O)[C@@H]1NC(=O)[C@H](CCCCN)NC(=O)[C@@H](Cc2ccc(NC(N)=O)cc2)NC(=O)[C@H](Cc2ccc(O)cc2)NC(=O)[C@H](NC(=O)[C@H](Cc2ccc(Cl)cc2)NC(=O)CN2CCN(CC(=O)O)CCN(CC(=O)O)CCN(CC(=O)O)CC2)CSSC[C@@H](C(=O)N[C@@H](Cc2ccc3ccccc3c2)C(N)=O)NC1=O	SSTR5 (Homo sapiens, UniProt P35346)	ligand displacement, radioligand			> 1000
C[C@H](CCC(=O)NCCS(=O)(=O)O)[C@H]1CC[C@H]2[C@@H]3[C@@H](O)C[C@@H]4C[C@H](O)CC[C@]4(C)[C@H]3CC[C@]12C	SLC10A1				23800
Cc1c(COc2cc(OCc3cccc(C#N)c3)c(CNC(CO)CO)cc2Cl)cccc1-c1cccc(OCCCCCCC(=O)NO)c1	HDAC3	enzyme activity, inhibitor			69.7
COc1ccc(CN2C3(NC(c4ccc(OC)cc4)C24C(=O)Nc2ccccc24)C(=O)Nc2ccccc23)cc1 (stereo not shown)	PIK3CB	enzyme activity, inhibitor, ADP detection			764
O=C(/C=C/c1cccc(OS(=O)(=O)Oc2ccc(Br)cc2)c1)NO	Histone deacetylase 3, with NCoR2 DAD (HDAC3, Homo sapiens, UniProt O15379)	enzyme activity, inhibitor, fluorogenic		together with: substrate 20 µM	93
CCn1c(=S)[nH]c2cc3ccccc3cc2c1=O	Genome polyprotein protease	enzyme activity, inhibitor, FRET			6460

Compound	target	test	test system	conditions	IC50 [nM]
O=C1/C(=N\c2ccc(Cl)cc2Br)c2ccccc2N1C(=O)c1ccccc1Br	PIK3CB	enzyme activity, inhibitor, ADP detection			74.6
O=C(Cc1ccc(OCc2ccccc2)cc1)NC1(C(=O)O)CCN(C(=O)c2ccc(-c3cccc(Cl)c3)cc2)CC1	LPAR3 (Homo sapiens, UniProt Q9UBY5)	antagonist, GloSensor cAMP			> 10000
Cc1c(COc2cc(OCc3cccc(C#N)c3)c(CN3CCCC[C@H]3C(=O)O)cc2Cl)cccc1-c1cccc(OCCCCCCC(=O)NO)c1	HDAC3	enzyme activity, inhibitor			15.4
O=C(CCc1ccc(CNC(C(=O)O)C2CCCCC2)cn1)NO (stereo not shown)	HDAC3	enzyme activity, inhibitor			759
COc1ccccc1/C=C1\C(=O)N(C)c2ccc(Nc3nc(C)nc4ccccc34)cc21	PIK3CB	enzyme activity, inhibitor, ADP detection			111
C=CC(=O)Nc1ccc(F)c(-c2ncnc3[nH]cc(C(=O)OCC)c23)c1	TYK2 (Homo sapiens, UniProt P29597)	kinase activity		together with: ATP 100 µM	> 10000
CN1CCCC1C(=O)NC(Cc1ccc(-n2cccn2)cc1)B(O)O (stereo not shown)	Proteasome subunit beta type-10 / Proteasome subunit beta type-3 (Homo sapiens, UniProt P40306+P49720)	β2i activity, inhibitor		immunoproteasome, together with: Ac-KQL-AMC	> 10000
Cc1cc2nc3c(nc2cc1C)-c1ccc2[n]1[Au-]14[n]5c(ccc5-3)C=[N+]1CCC[N+]4=C2.F[P-](F)(F)(F)(F)F	DNA topoisomerase 1 (TOP1, Homo sapiens, UniProt P11387)	enzyme activity, inhibitor			13000
Fc1ccc(Nc2nc(NC3CCCCC3)c3cc(Br)ccc3n2)cc1F	ADRB2 (Homo sapiens, UniProt P07550, T164V)	β-arrestin2 recruitment, antagonist, BRET	HEK293	mutant T164V, together with: isoprenaline 1 µM	200
C[C@]12CC[C@@H]3c4ccc(OS(=O)(=O)O)cc4CC[C@H]3[C@@H]1CCC2=O	SLC10A1				> 80000
CN1CCN(c2ccc(-c3cncc(Cl)c3N3CCC4(CCNC4=O)CC3)cc2)CC1	Cyclin-dependent kinase 8, with cyclin C (CDK8, Homo sapiens, UniProt P49336)				5
O=S(=O)(O)c1ccc(N=Nc2ccc(O)cc2O)cc1	Bcl-2-related protein A1 (Mus musculus, UniProt Q07440, C113S/P104K)	ligand displacement, FP			79800
CCCC(=O)OC1CCC2(C)C(CCC3(C)C2CC=C2C4C(C)C(C)CCC4(C(=O)O)CCC23C)C1(C)C (stereo not shown)	UGT1A10 (Homo sapiens, UniProt Q9HAW8)	enzyme activity, inhibitor			> 100000
COc1ccc2c(c1)N(C1=C(c3ccc(F)cc3)C(=O)NC1=O)CC2	GSK3B (Homo sapiens, UniProt P49841)	enzyme activity, inhibitor			280000
CCOC(=O)C[C@@H](C#N)NC(=O)[C@@H]1CCCN1C(=O)[C@@H](NC(=O)c1ccc(N)c(Cl)c1)C(C)(C)C	Caspase-8 (CASP8, Homo sapiens, UniProt Q14790)	enzyme activity, inhibitor			9670
CCn1nc(Cl)c2c1-c1cnc(N)c(c1)O[C@H](C)c1cc(F)ccc1-c1nn(C)cc1C2	NTRK3 (Homo sapiens, UniProt Q16288)	enzyme activity, inhibitor, radiometric			138
CC(C)(C)n1ncc2c(=O)n(Cc3cccc(F)c3)c(NCc3ccc(F)cn3)nc21	PDE5A (Homo sapiens, UniProt O76074)	enzyme activity, inhibitor			192
Cc1cccc(-c2cnn3ccc(Nc4ccc(N5CCOCC5)cc4)nc23)c1	CDK2 with cyclin A	radiometric		together with: 1 µM ATP	> 100000
COc1ccc2c(c1)CN(C(=O)CCN1CCC(Cc3ccccc3)CC1)CCS2	KCNA5 (Homo sapiens, UniProt P22460)	IKur current, inhibitor, whole-cell patch clamp	stable cell line		380
COc1cc(-n2cc3cc(F)cc(C(N)=O)c3n2)cc(Cl)c1C1CCCC(O)(CCO)C1 (stereo not shown)	PARP1 (Homo sapiens, UniProt P09874)	enzyme activity, inhibitor, radiometric			0.36
CNCc1ccc2c(c1)N(C(=O)OCC(F)(F)F)[C@H](CNC(=N)N)[C@H]2NC(=O)C(=O)Nc1ccc(Cl)c(F)c1	env (Human immunodeficiency virus 1, UniProt Q75760)	HIV-1 infection	Cf2Th-CD4/CCR5 cells	48 h	700

Repeated from above:
Compound	target	test	test system	conditions	IC50 [nM]
C[C@H](CCC(=O)NCCS(=O)(=O)O)[C@H]1CC[C@H]2[C@@H]3[C@@H](O)C[C@@H]4C[C@H](O)CC[C@]4(C)[C@H]3CC[C@]12C	SLC10A1				23800
Cc1c(COc2cc(OCc3cccc(C#N)c3)c(CNC(CO)CO)cc2Cl)cccc1-c1cccc(OCCCCCCC(=O)NO)c1	HDAC3	enzyme activity, inhibitor			69.7
COc1ccc(CN2C3(NC(c4ccc(OC)cc4)C24C(=O)Nc2ccccc24)C(=O)Nc2ccccc23)cc1 (stereo not shown)	PIK3CB	enzyme activity, inhibitor, ADP detection			764
O=C(/C=C/c1cccc(OS(=O)(=O)Oc2ccc(Br)cc2)c1)NO	Histone deacetylase 3, with NCoR2 DAD (HDAC3, Homo sapiens, UniProt O15379)	enzyme activity, inhibitor, fluorogenic		together with: substrate 20 µM	93
CCn1c(=S)[nH]c2cc3ccccc3cc2c1=O	Genome polyprotein protease	enzyme activity, inhibitor, FRET			6460
O=C1/C(=N\c2ccc(Cl)cc2Br)c2ccccc2N1C(=O)c1ccccc1Br	PIK3CB	enzyme activity, inhibitor, ADP detection			74.6
